Measured values pooled from the literature.
Lines come from different studies, so protocols differ. “And” joins repeats or separate records; there may be more than shown. ± gives the spread as reported.
IDE: Insulin-degrading enzyme (IDE, Homo sapiens, UniProt P14735)

SMILES	tested on	assay	test system	setting	scale	quantity	value
Nc1ccccc1NC(=O)c1ccc(CNc2nccc(-c3cccnc3)n2)cc1	BT-12	cell viability, MTT	–	10 µM, 72 h	–	inhibition	95%
CC[S+]([O-])c1nc(-c2ccccc2)cc(C(F)(F)F)n1 (stereo not drawn)	HeLa Kyoto	RelA nuclear import, high content imaging	–	1.58 µM, 3 h, together with: 1 µM PMA, 60 min	–	cells with nuclear RelA	90.7% and 70.7%
O=C(/C=C/C=C/C=C/C1CCCCC1)NC1=C[C@@](O)(/C=C/C=C/C=C/C(=O)NC2=C(O)CCC2=O)[C@@H]2O[C@@H]2C1=O	ChaGo-K-1	cell growth, CellTiter-Glo	–	78 h	–	GI50	17300 nM
Cc1cc(Nc2ncc(Cl)c(Nc3ccccc3S(=O)(=O)C(C)C)n2)c(OC(C)C)cc1C1CCNCC1	CLB-GE	phosphoproteomics LC-MS/MS, refers to: SLC35E1 phosphorylation	–	200 nM, 60 min	relative to: untreated	log2 fold change	-2.43
COc1ccc(NC(=O)Nc2cccc(-c3cn(Cc4ccccc4C)nn3)c2)cc1	Huh-7	RT-PCR, refers to: TNFa, Gpx4, Nrf2	–	10 µM, 72 h	–	mRNA level	no effect
COc1cc2ncnc(N3CCN(C(=O)Nc4ccc(Oc5ccccc5)cc4)CC3)c2cc1OC	HeLa expressing Ub(G76V)-GFP	Ub(G76V)-GFP degradation, inhibitor, cycloheximide chase	–	12 µM	–	inhibition	65%
Cn1cc(Nc2nccc(-c3ccc4c(c3)CN(C3COC3)CC[C@H]4NC(=O)c3cn(C(C)(C)C)nn3)n2)cn1	mouse splenic B cells	refers to: Thrombopoietin signalling	–	30 mg/kg, IgD-activated in vivo	relative to: vehicle, direction not given	pathway activation z-score	2.71
CC(Nc1nc(N2CCCC2)nc2ccccc12)c1ccccc1 (stereo not drawn)	HeLa Kyoto	RelA nuclear import, high content imaging	–	0.5 µM, 3 h, together with: 1 µM PMA, 60 min	–	cells with nuclear RelA	91.1% and 82.1%
C=CCn1c(=O)c2cnc(Nc3ccc(N4CCN(C)CC4)cc3)nc2n1-c1ccc2c(n1)[C@@](O)(CC)CC2	OVCAR-3	flow cytometry	–	concentration not given, G1 phase	–	γH2AX-positive cells	9.4%
CCCc1cc(C)[nH]c(=O)c1CNC(=O)c1cc(-c2ccnc(N3CCN(C)CC3)c2)cc2c1cnn2C(C)C	HBL-1	–	–	1 µM, 120 h	–	viability	124%
Cc1ccccc1-c1ccc([C@H]2[C@@H](CO)N3CCCCN(CC4CC4)C[C@@H]23)cc1	IDE	enzyme activity, inhibitor, fluorogenic kinetic	–	together with: Mca-RPPGFSAFK(Dnp)-OH substrate	–	EC50	45000 nM
CC(C)NCC(O)c1ccc(O)c(O)c1 (stereo not drawn)	mouse ventricular cardiomyocytes	–	–	dose not given, 0.131 s	–	sarcomere length	1.61 µm
Cn1cc(-c2ccc(-c3cncc(Cl)c3N3CCC4(CCNC4=O)CC3)cc2)cn1	COLO 205	gene expression, microarray, refers to: TNFRSF10B (DR5) mRNA	–	concentration not given, 6 h	relative to: untreated cells	log2 fold change	2.98
CCC(=O)N1CCC(COCC(=O)N2CCN(c3nc(-c4cnc(N)nc4C(F)F)nc(N4CCOC[C@@H]4C)n3)CC2)CC1	A2058	western blot, refers to: phospho-PKB/Akt Ser473	–	2 h	–	IC50	287 nM
Cc1[nH]nc2ccc(-c3cncc(OC[C@@H](N)Cc4ccccc4)c3)cc12	hiPSC cardiomyocytes	CellTiter-Glo	–	concentration not given, 24 h	relative to: vehicle	ATP level	107%
Cc1[nH]c(C)c(-c2ccc(-c3ccc(OC(F)(F)F)cc3)nc2)c(=O)c1Cl	Plasmodium yoelii	–	17XL	384-well	–	IC50	224 ± 25 nM
CC[C@]1(O)C[C@@H]2CN(CCc3c([nH]c4ccccc34)[C@@](C(=O)OC)(c3cc4c(cc3OC)N(C)[C@H]3[C@@](O)(C(=O)OC)[C@H](OC(C)=O)[C@]5(CC)C=CCN6CC[C@]43[C@@H]65)C2)C1	BT-12	cell viability, MTT	–	10 µM, 72 h	–	inhibition	87.8%
COc1ccc2nc(N3CCOCC3)c(-c3cc(-c4cccc(O)c4)nc4[nH]nc(N)c34)cc2c1	WI-38	cell viability, MTT	–	72 h	–	EC50	149 ± 7 nM
O=C1NC(=O)C(c2c[nH]c3ccccc23)=C1c1c[nH]c2ccccc12	HeLa expressing Ub(G76V)-GFP	Ub(G76V)-GFP degradation, inhibitor, cycloheximide chase	–	12 µM	–	inhibition	-9%
CCCNC(=O)[C@H]1O[C@@H]1C(=O)N[C@H](C(=O)N1CCC[C@H]1C(=O)OC)[C@@H](C)CC	MDA-MB-231	cell viability, MTT	–	concentration not given, 72 h, irradiated 15 min up to 470 nm	–	EC50	33000 ± 8700 nM

SMILES	tested on	assay	test system	setting	scale	quantity	value
CC(C)C[C@H](NC(=O)[C@@H](NC(=O)c1cccc(-c2ccccc2)n1)[C@@H](C)O)B(O)O	BT-12	cell viability, MTT	–	10 µM, 72 h	–	inhibition	94.4%
CCCC(=O)O	HBL-1	–	–	0.1 µM, 120 h	–	viability	119%
Cc1ccccc1-c1ccc([C@@H]2[C@H]3CN(C(=O)c4cccnc4)CC(=O)N3[C@H]2CO)cc1	IDE	enzyme activity, inhibitor, fluorogenic kinetic	–	together with: Mca-RPPGFSAFK(Dnp)-OH substrate	–	EC50	2600 nM
Nc1ccn([C@@H]2O[C@H](CO)[C@@H](O)C2(F)F)c(=O)n1	HBL-1	–	–	0.1 µM, 120 h	–	viability	5.65%
Cn1nc2c3c(cccc31)C(=O)c1ccccc1-2	HeLa expressing Ub(G76V)-GFP	Ub(G76V)-GFP degradation, cycloheximide chase	–	12 µM	–	inhibition	89%
CC/C(=N\NC(=O)C(C)Nc1ccccc1)c1ccc(O)c(C)c1O (stereo not drawn)	SK-OV-3	Western blot, refers to: TAZ	–	10 µM, 6 h, 2D culture, unit not given	relative to: β-actin	protein level	1.59 ± 0.2
O=C(/C=C/c1ccc(CN(CCO)CCc2c[nH]c3ccccc23)cc1)NO	BT-12	cell viability, MTT	–	10 µM, 72 h	–	inhibition	94.1%
O=c1cc(-c2cccc3c2Sc2ccccc2S3)oc(N2CCOCC2)c1	HeLa expressing Ub(G76V)-GFP	Ub(G76V)-GFP degradation, cycloheximide chase	–	12 µM	–	inhibition	11%
Cc1[nH]c(C)c(-c2ccc(OCc3cc(F)cc(F)c3)nc2)c(=O)c1Cl	Plasmodium yoelii	–	17XL	384-well	–	IC50	165 ± 55 nM
CC[C@H](C)C(=O)O[C@H]1CCC=C2C=C[C@H](C)[C@H](CC[C@@H]3C[C@@H](O)CC(=O)O3)[C@H]21	BT-12	cell viability, MTT	–	10 µM, 72 h	–	inhibition	80.8%
O=P(O)(O)C(O)(Cn1ccnc1)P(=O)(O)O	MDA-MB-231	AlamarBlue	–	1.9 µM, 72 h	relative to: control	viability	102 ± 5%
O=C(O)c1ccnc(C(=O)O)c1	HBL-1	–	–	0.5 µM, 120 h	–	viability	112%
O=C(C[C@@H](C(F)F)n1ccc(F)n1)N1CCC(O)(Cn2cnc3c(cnn3-c3ccc(F)cc3)c2=O)CC1	CHP-212 resistant cells (pooled)	PI flow cytometry	–	0.1 µM, 24 h	–	cells in G2/M phase	9.84% and 13.5% and 16.3%
CC(=O)Nc1cccc(-n2c(=O)n(C3CC3)c(=O)c3c(Nc4ccc(I)cc4F)n(C)c(=O)c(C)c32)c1	LoVo (KRAS G13D)	cell viability, resazurin	–	50.00 nM, 72 h	relative to: DMSO	average fractional effect	65%
CNc1cc2c(Nc3cccc(Br)c3)ncnc2cn1	HeLa expressing Ub(G76V)-GFP	Ub(G76V)-GFP degradation, inhibitor, cycloheximide chase	–	12 µM	–	inhibition	53%
CCn1cc(-c2cc(Cn3ccoc3=N)cc3c2CCN([C@@H](C)c2cc(OC)ccn2)C3=O)c(C(F)(F)F)n1	LK-2	cell growth, inhibitor	–	120 h	–	EC50	16.4 nM
COc1cc(/C=C/C(=O)N2CCC=CC2=O)cc(OC)c1OC	MDA-MB-468	qRT-PCR, refers to: PRDX5	–	30 µM, 6 h	relative to: time zero	mRNA level	106 ± 14.7%
CCn1cc(-c2cc(Cn3ccnc3)cc3c2CCN([C@H](c2cc(OC)ccn2)C2CC2)C3=O)c(C(F)(F)F)n1	HSC-3	cell growth, inhibitor	–	120 h	–	EC50	> 30000 nM
O=C([O-])CN(CCN(CC(=O)[O-])Cc1cc(CCC(=O)NCCCCCC(=O)NCCCC[C@H](NC(=O)N[C@@H](CCC(=O)O)C(=O)O)C(=O)O)ccc1[O-])Cc1cc(CCC(=O)O)ccc1[O-].[68Ga+3].[OH3+]	LNCaP	–	–	25 nM, 1 h, 37 °C	–	surface-bound activity	0.76 ± 0.2 %AD/mg protein

For quick reference, copied from above:
SMILES	tested on	assay	test system	setting	scale	quantity	value
COc1ccc(NC(=O)Nc2cccc(-c3cn(Cc4ccccc4C)nn3)c2)cc1	Huh-7	RT-PCR, refers to: TNFa, Gpx4, Nrf2	–	10 µM, 72 h	–	mRNA level	no effect
COc1cc2ncnc(N3CCN(C(=O)Nc4ccc(Oc5ccccc5)cc4)CC3)c2cc1OC	HeLa expressing Ub(G76V)-GFP	Ub(G76V)-GFP degradation, inhibitor, cycloheximide chase	–	12 µM	–	inhibition	65%
